# Measured values pooled from the literature.
# Every numbered part comes from another study and shows a few of its results, in no order. Values joined by “and” are separate records of one study, mostly repeats; a detail may differ.
# Sequence of UniProt P48736 (whole entry, looked up): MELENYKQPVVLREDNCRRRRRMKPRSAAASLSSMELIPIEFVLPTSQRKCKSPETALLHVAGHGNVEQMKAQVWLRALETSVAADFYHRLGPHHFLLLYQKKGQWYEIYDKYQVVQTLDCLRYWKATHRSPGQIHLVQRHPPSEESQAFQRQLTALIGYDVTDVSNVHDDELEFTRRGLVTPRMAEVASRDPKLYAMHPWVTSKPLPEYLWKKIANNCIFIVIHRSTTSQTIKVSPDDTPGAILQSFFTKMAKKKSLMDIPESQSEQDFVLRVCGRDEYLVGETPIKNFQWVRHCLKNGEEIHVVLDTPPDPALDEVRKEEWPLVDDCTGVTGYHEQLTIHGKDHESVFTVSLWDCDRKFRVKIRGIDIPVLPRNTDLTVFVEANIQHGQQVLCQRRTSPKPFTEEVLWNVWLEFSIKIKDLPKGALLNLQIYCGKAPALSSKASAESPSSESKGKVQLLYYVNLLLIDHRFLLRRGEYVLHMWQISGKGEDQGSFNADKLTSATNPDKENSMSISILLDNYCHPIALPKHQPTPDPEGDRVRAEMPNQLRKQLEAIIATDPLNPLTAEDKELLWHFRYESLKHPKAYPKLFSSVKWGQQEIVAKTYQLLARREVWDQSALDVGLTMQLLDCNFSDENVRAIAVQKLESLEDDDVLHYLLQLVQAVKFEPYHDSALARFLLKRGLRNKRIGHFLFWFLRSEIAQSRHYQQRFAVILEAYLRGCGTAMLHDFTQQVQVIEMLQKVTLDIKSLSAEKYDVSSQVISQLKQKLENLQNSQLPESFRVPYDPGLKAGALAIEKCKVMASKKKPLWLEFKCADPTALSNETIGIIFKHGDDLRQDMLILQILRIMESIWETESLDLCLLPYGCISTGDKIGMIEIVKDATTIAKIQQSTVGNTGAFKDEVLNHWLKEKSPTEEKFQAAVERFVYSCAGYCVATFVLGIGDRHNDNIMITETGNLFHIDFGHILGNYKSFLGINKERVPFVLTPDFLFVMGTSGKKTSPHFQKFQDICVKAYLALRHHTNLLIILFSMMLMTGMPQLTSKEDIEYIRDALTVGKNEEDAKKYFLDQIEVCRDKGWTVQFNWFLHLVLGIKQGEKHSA
# Sequence of UniProt P49841 (whole entry, looked up): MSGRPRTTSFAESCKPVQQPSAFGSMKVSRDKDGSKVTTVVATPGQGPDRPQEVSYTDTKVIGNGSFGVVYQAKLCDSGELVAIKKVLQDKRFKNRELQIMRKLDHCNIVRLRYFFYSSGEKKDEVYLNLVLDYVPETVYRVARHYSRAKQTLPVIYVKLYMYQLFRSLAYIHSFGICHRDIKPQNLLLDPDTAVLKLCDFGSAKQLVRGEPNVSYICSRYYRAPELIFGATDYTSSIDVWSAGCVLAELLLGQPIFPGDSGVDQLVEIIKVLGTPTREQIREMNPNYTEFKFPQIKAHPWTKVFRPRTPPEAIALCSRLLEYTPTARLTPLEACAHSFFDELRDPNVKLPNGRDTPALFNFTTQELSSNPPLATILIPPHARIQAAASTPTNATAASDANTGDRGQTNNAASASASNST

# Series 1
# SMILES: CCN1/C(=C/C=C2\CCCC(/C=C/C3=[N+](CC)c4ccccc4C3(C)C)=C2NCCCCCCCCN2CCC(Nc3nc4ccccc4n3Cc3ccc(F)cc3)CC2)C(C)(C)c2ccccc21
# Cell line: U-87 MG
# Tested at: concentration not given
# Relative to: DMSO
measured,log2 fold change
ANKRD52 mRNA,-0.816
ZNF267 mRNA,1.48
IKBKE mRNA,-1.4
ZNF800 mRNA,1.08
NGLY1 mRNA,0.817
HNMT mRNA,-1.38
PLSCR4 mRNA,-1.37
EPB41L5 mRNA,1.5
LFNG mRNA,-2.76
DCPS mRNA,-1.28
PLEKHG3 mRNA,-2.96
ANLN mRNA,-2.36
CD24 mRNA,-3.57
TICRR mRNA,-1.33
FBXO42 mRNA,1.06
KLHL11 mRNA,1.18

# Series 2
# SMILES: CN1C(=O)C(O)(C(=O)O)Oc2cc(F)ccc21 (centres unmarked)
organism,assay,test system,setting,how to read,inhibition
Arabidopsis thaliana,root length,"Col-0, seedlings",100 µg/mL,relative to: water control,63.2%
Alopecurus aequalis,fresh weight,,"150 g ai/ha, pre-emergence treatment",,67.7% and 62.8% and 65.1%
Arabidopsis thaliana,hypocotyl length,"Col-0, seedlings",3.125 µg/mL,,7.37%
Arabidopsis thaliana,root length,Col-0,"50.0 µg/mL, 7 days, seed germination, dark",,36.5%
Arabidopsis thaliana,root length,Col-0,"12.5 µg/mL, 7 days, seed germination, dark",,22.7%
Arabidopsis thaliana,root length,Col-0,"100 µg/mL, 7 days, seed germination, dark",,63.2%
Arabidopsis thaliana,root length,Col-0,"25.0 µg/mL, 7 days, seed germination, dark",,29.5%
Triticum aestivum,fresh weight,,"soil surface spray, 150 g ai/ha, 21 days, pre-emergence crop safety",,9.2% and 7% and 8%
Arabidopsis thaliana,root length,"Col-0, seedlings",3.125 µg/mL,relative to: water control,7.57%
Arabidopsis thaliana,hypocotyl length,Col-0,"6.25 µg/mL, 7 days, seed germination, dark",,13.1%
Abutilon theophrasti,fresh weight,,"150 g ai/ha, pre-emergence treatment",,61.2% and 54.2% and 63.4%
Arabidopsis thaliana,root length,Col-0,"3.13 µg/mL, 7 days, seed germination, dark",,7.6%
Echinochloa crus-galli,fresh weight,,"150 g ai/ha, post-emergence treatment",,52.3% and 49.8% and 56.4%

# Series 3
# Compound: CN(C1COC1)C(C)(C)/C=C(\C#N)C(=O)N1CCC[C@H]1Cn1nc(-c2ccc(Oc3ccccc3)cc2F)c2c(N)ncnc21
# Effect on: kinase activity
target,tested at,inhibition
"Phosphatidylinositol 4,5-bisphosphate 3-kinase catalytic subunit gamma isoform (PIK3CG, Homo sapiens, UniProt P48736)",0.1 µM,-11%
"Dual specificity protein kinase CLK1 (CLK1, Homo sapiens, UniProt P49759)",1 µM,4%
"Glycogen synthase kinase-3 beta (GSK3B, Homo sapiens, UniProt P49841)",0.1 µM,-11%
"PAS domain-containing serine/threonine-protein kinase (PASK, Homo sapiens, UniProt Q96RG2)",0.1 µM,3%
"MAP/microtubule affinity-regulating kinase 3 (MARK3, Homo sapiens, UniProt P27448)",0.1 µM,4%
"Receptor tyrosine-protein kinase erbB-4 (ERBB4, Homo sapiens, UniProt Q15303)",0.1 µM,50%
"Calcium/calmodulin-dependent protein kinase type II subunit delta (CAMK2D, Homo sapiens, UniProt Q13557)",1 µM,7%
"Protein kinase C gamma type (PRKCG, Homo sapiens, UniProt P05129)",0.1 µM,1%

# Series 4
# Cell line: MDA-MB-231
# Effect on: cell viability
# Method: CellCounting-Lite
# Tested at: 0.9145 nM
# Temperature: 37 °C
# Reading: higher = more viable cells
SMILES,luminescence signal
CCn1cnc2c(NCc3nc4cc(Cl)c(Cl)cc4[nH]3)nc(N3CCN(C(=O)[C@H](C)NC(C)=O)CC3)nc21,421000 a.u. and 477000 a.u. and 423000 a.u.
CCn1cnc2c(NCc3nc4cc(Cl)c(Cl)cc4[nH]3)nc(N3CCN(Cc4ccncc4)CC3)nc21,450000 a.u. and 425000 a.u. and 468000 a.u.
CCn1cnc2c(NCc3nc4cc(Cl)c(Cl)cc4[nH]3)nc(N3CCN(C(C)=O)CC3)nc21,426000 a.u. and 445000 a.u. and 468000 a.u.
Cn1cc(-n2cnc3c(NCc4nc5cc(Cl)c(Cl)cc5[nH]4)nc(N4CCNCC4)nc32)cn1,489000 a.u. and 471000 a.u. and 443000 a.u.
CCn1cnc2c(NCc3nc4cc(Cl)c(Cl)cc4[nH]3)nc(N3CCN(C(=O)CNC(C)=O)CC3)nc21,477000 a.u. and 471000 a.u. and 499000 a.u.
CC(=O)N1CCN(c2nc(NCc3nc4cc(Cl)c(Cl)cc4[nH]3)c3ncn(C(C)C)c3n2)CC1,560000 a.u. and 502000 a.u. and 483000 a.u.
CC(=O)N1CCN(c2nc(NCc3nc4cc(Cl)c(Cl)cc4[nH]3)c3ncn(-c4cnn(C)c4)c3n2)CC1,553000 a.u. and 522000 a.u. and 489000 a.u.
CCn1cnc2c(NCc3nc4cc(Cl)c(Cl)cc4[nH]3)nc(N3CCN(c4ccccn4)CC3)nc21,631000 a.u. and 602000 a.u. and 594000 a.u.
CCn1cnc2c(NCc3nc4cc(Cl)c(Cl)cc4[nH]3)nc(N3CCN(C(=O)c4ccccn4)CC3)nc21,455000 a.u. and 431000 a.u.

# Series 5
# SMILES: CC(=O)NC/C(=C\F)COc1cccc(Cn2c(=S)[nH]c(=O)c3[nH]cnc32)c1
# Target: Myeloperoxidase (MPO, Homo sapiens, UniProt P05164)
# Sequence of UniProt P05164 (whole entry, looked up): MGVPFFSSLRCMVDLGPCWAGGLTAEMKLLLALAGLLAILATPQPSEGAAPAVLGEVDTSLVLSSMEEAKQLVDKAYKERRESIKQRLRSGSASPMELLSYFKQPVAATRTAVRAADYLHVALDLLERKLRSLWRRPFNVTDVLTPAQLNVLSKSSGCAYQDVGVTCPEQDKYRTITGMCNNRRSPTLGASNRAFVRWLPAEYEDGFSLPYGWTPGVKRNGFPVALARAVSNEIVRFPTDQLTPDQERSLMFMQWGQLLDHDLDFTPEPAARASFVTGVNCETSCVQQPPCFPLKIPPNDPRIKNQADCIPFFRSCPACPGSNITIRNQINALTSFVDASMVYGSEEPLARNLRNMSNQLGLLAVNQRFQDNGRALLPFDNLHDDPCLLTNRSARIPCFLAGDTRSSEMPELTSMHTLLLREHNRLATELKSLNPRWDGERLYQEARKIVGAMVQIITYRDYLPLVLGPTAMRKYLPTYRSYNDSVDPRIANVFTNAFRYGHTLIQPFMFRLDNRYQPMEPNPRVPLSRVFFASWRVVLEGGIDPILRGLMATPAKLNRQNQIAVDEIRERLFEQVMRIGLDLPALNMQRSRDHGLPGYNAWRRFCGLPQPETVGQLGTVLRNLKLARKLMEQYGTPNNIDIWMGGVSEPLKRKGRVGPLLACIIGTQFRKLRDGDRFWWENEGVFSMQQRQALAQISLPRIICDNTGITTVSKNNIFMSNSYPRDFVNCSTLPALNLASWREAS
# Effect on: enzyme activity
# Action: inhibitor
# Method: fluorescence
tested at,inhibition
1.5 nM,-10.3% and -6.36% and -5.13%
0.1235 µM,56.3% and 47.9% and 40.4%
1.111 µM,86.6% and 94% and 93.4%
200 pM,-6.94%
0.3704 µM,79.8% and 80.3% and 64%
4.6 nM,-6.15% and 0.524% and 1.52%

# Series 6
# Compound: C[C@@H]1CN(c2ccc(-c3cc(C(=O)NCCOCCOCCOCCOCCOCCOCCNC(=O)/C=C/c4[nH]cc(C(=O)N[C@@H](CC(N)=O)c5ccc(F)c(Cl)c5)c4-c4ccc(Cl)cc4F)ccc3F)cc2NC(=O)c2ccc(F)cc2C(F)(F)F)C[C@H](C)N1C
# Effect on: thermal unfolding
# Method: differential scanning fluorimetry
# Tested at: 5.5 µM
# Reading: higher = more unfolded
# WDR5: WD repeat-containing protein 5 (WDR5, Homo sapiens, UniProt P61964)
# DCAF1: DDB1- and CUL4-associated factor 1 (DCAF1, Homo sapiens, UniProt Q9Y4B6)
# Sequence of UniProt Q9Y4B6 (whole entry, looked up): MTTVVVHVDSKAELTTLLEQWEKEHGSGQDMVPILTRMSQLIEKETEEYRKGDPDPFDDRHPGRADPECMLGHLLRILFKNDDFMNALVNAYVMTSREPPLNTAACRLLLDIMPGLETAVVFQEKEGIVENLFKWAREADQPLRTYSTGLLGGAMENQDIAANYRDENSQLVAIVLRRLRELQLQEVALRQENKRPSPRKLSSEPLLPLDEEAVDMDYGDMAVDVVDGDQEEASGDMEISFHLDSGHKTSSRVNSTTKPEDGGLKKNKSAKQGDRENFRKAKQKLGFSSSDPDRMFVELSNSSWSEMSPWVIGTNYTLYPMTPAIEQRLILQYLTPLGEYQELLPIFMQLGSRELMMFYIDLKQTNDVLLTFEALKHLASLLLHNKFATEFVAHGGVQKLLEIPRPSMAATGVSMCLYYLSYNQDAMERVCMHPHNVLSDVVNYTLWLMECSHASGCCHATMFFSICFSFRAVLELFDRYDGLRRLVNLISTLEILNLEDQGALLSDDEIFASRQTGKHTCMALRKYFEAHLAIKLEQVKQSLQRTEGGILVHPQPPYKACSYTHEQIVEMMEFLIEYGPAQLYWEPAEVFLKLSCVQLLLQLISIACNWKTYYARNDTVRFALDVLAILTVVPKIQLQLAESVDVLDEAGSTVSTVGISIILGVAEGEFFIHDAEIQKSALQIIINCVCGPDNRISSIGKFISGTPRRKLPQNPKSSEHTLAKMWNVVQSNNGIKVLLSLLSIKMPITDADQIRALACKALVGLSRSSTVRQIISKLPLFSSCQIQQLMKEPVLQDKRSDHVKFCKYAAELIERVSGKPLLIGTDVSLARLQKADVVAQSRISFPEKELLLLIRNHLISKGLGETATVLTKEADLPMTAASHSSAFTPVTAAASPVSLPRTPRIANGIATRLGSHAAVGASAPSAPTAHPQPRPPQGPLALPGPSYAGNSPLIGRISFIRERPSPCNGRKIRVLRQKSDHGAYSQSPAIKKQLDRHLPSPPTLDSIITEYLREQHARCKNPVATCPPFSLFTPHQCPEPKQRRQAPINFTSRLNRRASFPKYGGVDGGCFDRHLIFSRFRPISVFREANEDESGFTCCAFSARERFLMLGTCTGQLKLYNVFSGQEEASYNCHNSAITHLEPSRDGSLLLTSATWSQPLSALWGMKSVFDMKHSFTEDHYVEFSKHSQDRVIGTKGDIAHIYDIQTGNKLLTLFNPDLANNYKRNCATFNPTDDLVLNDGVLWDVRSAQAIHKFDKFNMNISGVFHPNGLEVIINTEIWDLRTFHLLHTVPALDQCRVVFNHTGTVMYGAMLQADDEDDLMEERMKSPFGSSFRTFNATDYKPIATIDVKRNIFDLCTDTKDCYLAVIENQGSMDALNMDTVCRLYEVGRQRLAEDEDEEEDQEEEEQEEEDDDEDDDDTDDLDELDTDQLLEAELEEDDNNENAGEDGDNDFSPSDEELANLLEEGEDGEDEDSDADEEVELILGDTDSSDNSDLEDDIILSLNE
target,temperature,SYPRO Orange fluorescence [a.u.]
WDR5,62.01 °C,15200
DCAF1,80.81 °C,39400
WDR5,49.8 °C,16300
WDR5,34.8 °C,13900
WDR5,29.2 °C,13500
WDR5,35.8 °C,14000
WDR5,49.2 °C,16000
DCAF1,57.01 °C,34300

# Series 7
# SMILES: Cc1ccnc(C)c1-c1cnc2[nH]c(-c3ccc(N4CCN(C)CC4)nc3C)nc2c1
# Target: Membrane-associated tyrosine- and threonine-specific cdc2-inhibitory kinase (PKMYT1, Homo sapiens, UniProt Q99640)
# Effect on: binding
# Method: HTRF
# Construct (Q99640 1-499): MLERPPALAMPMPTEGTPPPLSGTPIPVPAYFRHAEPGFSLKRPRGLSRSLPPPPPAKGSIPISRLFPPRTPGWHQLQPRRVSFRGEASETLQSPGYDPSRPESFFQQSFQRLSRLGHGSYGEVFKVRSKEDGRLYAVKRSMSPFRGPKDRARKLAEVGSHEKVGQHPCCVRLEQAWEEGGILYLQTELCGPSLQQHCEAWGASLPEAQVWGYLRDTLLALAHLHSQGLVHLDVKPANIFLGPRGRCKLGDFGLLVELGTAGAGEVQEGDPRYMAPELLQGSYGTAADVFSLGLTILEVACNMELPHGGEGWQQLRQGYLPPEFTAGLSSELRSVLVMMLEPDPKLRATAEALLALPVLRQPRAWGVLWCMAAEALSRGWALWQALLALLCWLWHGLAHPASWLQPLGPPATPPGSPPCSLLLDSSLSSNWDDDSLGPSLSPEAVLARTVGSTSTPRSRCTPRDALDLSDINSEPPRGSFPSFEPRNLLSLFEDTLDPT
tested at,inhibition
0.0169 nM,3.92% and -4.87%
370.37 nM,-13.3% and -17.9%
41.15 nM,-20.2% and -16.2%

# Series 8
# Target: E3 ubiquitin-protein ligase NEDD4 (Homo sapiens, UniProt P46934)
# Sequence of UniProt P46934 (whole entry, looked up): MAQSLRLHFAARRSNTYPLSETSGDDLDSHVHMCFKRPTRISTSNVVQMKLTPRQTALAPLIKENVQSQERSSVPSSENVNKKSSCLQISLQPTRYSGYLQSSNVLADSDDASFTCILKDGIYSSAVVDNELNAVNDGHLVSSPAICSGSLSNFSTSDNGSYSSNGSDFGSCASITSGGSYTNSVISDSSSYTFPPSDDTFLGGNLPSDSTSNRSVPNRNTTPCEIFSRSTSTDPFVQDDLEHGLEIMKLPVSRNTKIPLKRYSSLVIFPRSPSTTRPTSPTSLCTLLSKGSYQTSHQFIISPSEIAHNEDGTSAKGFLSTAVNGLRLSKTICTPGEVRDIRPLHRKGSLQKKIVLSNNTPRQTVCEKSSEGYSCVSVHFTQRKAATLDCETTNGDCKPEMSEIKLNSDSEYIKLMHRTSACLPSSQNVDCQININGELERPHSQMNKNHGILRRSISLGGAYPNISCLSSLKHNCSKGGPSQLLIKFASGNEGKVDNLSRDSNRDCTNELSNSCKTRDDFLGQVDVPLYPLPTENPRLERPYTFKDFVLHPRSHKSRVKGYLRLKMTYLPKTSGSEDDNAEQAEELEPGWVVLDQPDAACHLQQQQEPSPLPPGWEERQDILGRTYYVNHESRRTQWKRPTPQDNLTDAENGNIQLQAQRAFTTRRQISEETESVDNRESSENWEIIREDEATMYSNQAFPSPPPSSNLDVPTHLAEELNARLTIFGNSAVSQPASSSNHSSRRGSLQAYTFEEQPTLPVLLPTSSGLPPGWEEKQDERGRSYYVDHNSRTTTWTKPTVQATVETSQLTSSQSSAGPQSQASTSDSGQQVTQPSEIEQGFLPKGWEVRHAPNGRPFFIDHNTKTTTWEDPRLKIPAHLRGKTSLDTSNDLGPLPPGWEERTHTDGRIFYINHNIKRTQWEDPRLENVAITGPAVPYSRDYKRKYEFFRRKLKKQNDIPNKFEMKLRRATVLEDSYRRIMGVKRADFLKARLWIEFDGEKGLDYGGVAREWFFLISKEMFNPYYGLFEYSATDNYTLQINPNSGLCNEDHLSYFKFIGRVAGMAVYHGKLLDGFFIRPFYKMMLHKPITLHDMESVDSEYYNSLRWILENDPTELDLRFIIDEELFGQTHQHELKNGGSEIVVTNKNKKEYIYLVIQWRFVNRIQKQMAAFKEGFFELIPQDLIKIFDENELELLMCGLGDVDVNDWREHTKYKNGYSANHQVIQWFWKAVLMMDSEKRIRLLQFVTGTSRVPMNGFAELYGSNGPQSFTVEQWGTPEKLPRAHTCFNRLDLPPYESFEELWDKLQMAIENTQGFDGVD
# Effect on: enzyme activity
# Action: inhibitor
# Method: TR-FRET
Structure (SMILES),IC50 [nM]
CCOC(=O)/C=C/CNCCCCN1c2cc(Cl)ccc2C(=O)N(C)c2ccccc21,1650
CONC(=O)/C=C/CNCCCCN1c2ccccc2CCc2ccc(Cl)cc21,1050
CCOC(=O)/C=C/CNCCCCN1c2cc(Cl)ccc2COc2ccccc21,900

# Mixed results
SMILES,target or system,assay,test system,setting,how to read,endpoint,value
Cc1ncsc1-c1ccc(C2(NC(=O)C3CC(O)CN3C(=O)C(NC(=O)c3ccc(COc4c(-c5c(C)c(F)cc6[nH]ncc56)c(C5CC5)cc5c(N6CC7CC6CN7)nc(OC6CCOCC6)nc45)cc3)C(C)C)CC2)cc1 (centres unmarked),AsPC-1,in-cell ELISA,,"10 nM, individual replicates",,phospho-ERK1/2 level,92% and 99.1% and 88.4% and 95.2% and 87.4%
CC(C)NC(=O)COc1ccc(Cl)cc1,"Sodium-dependent neutral amino acid transporter B(0)AT1 (SLC6A19, Homo sapiens, UniProt Q695T7)","inhibitor, L-[14C]leucine uptake",CHO-BC cells,first repeat,,IC50,17700 nM
COCC1CC2C(CCC3C(O)CCC32)c2ccc(O)cc21 (centres unmarked),SK-OV-3,"DNA microarray, measured: ACTB",,25 µM,relative to: untreated control,expression ratio,0.821 and 0.782 and 0.801 and 0.816 and 0.826
COc1cc(C(=O)OCCCN2CCCN(CCCOC(=O)c3cc(OC)c(OC)c(OCc4ccc([N+](=O)[O-])cc4)c3)CC2)cc(OC)c1OC,,"von Frey, 0.4 g filament","mouse, CFA inflammatory pain","subcutaneous, 10 mg/kg, 5 h post-dose, third injection, day 5",,paw withdrawal frequency,40% and 70% and 60% and 50%
COCC1CC2C(CCC3(C)C(O)CCC23)c2ccc(O)cc21 (centres unmarked),PANC-1,"DNA microarray, measured: KIF20A",,"concentration not given, higher dose arm",relative to: untreated cells,mRNA level ratio,0.28 and 0.276 and 0.279 and 0.274
O=C(Nc1ccccc1)Nc1cccc(Oc2ccc3nccn3n2)c1,"Focal adhesion kinase 1 (PTK2, Homo sapiens, UniProt Q05397)",cell-free assay,,1 µM,,remaining signal,100%
Cc1nc(C)c(C=[N+]([O-])C(C)(C)C)nc1C,,footprint test,MPTP-induced Parkinson's disease mouse model,90 mg/kg,,stride length,6.2 cm and 7.07 cm and 6.03 cm and 6.95 cm and 5.7 cm and 5.38 cm and 6.59 cm and 6.1 cm
Cc1ncsc1-c1ccc(C(CO)NC(=O)C2CC(O)CN2C(=O)C(C(C)C)n2cc(-c3ccc(COc4c(-c5c(C)c(F)cc6[nH]ncc56)c(C5CC5)cc5c(N6CC7CC6CN7)nc(OC6CCOCC6)nc45)cc3)nn2)cc1 (centres unmarked),,,"PK-1 xenograft, mouse","30 mg/kg once weekly, day 0",,tumour volume,237 mm3 and 165 mm3 and 143 mm3 and 150 mm3

# A few entries again (series 3):
target,tested at,inhibition
"Receptor tyrosine-protein kinase erbB-4 (ERBB4, Homo sapiens, UniProt Q15303)",0.1 µM,50%
"Dual specificity protein kinase CLK1 (CLK1, Homo sapiens, UniProt P49759)",1 µM,4%
"Calcium/calmodulin-dependent protein kinase type II subunit delta (CAMK2D, Homo sapiens, UniProt Q13557)",1 µM,7%
"Glycogen synthase kinase-3 beta (GSK3B, Homo sapiens, UniProt P49841)",0.1 µM,-11%
"PAS domain-containing serine/threonine-protein kinase (PASK, Homo sapiens, UniProt Q96RG2)",0.1 µM,3%
"Protein kinase C gamma type (PRKCG, Homo sapiens, UniProt P05129)",0.1 µM,1%
"MAP/microtubule affinity-regulating kinase 3 (MARK3, Homo sapiens, UniProt P27448)",0.1 µM,4%
"Phosphatidylinositol 4,5-bisphosphate 3-kinase catalytic subunit gamma isoform (PIK3CG, Homo sapiens, UniProt P48736)",0.1 µM,-11%
